Assay results collected from several papers.
Protocols differ between the studies behind these lines.
B1: PI4KB Q121R (Homo sapiens, UniProt Q9UBF8-2); sequence looked up; chain MGDTVVEPAPLKPTSEPTSGPPGNNGGSLLSVITEGVGELSVIDPEVAQKACQEVLEKVKLLHGGVAVSSRGTPLELVNGDGVDSEIRCLDDPPAQIREEEDEMGAAVASGTAKGARRRRRNNSAKQSWLLRLFESKLFDISMAISYLYNSKEPGVQAYIGNRLFCFRNEDVDFYLPQLLNMYIHMDEDVGDAIKPYIVHRCRQSINFSLQCALLLGAYSSDMHISTQRHSRGTKLRKLILSDELKPAHRKRELPSLSPAPDTGLSPSKRTHQRSKSDATASISLSSNLKRTASNPKVENEDEPVRLAPEREFIKSLMAIGKRLATLPTKEQKTQRLISELSLLNHKLPARVWLPTAGFDHHVVRVPHTQAVVLNSKDKAPYLIYVEVLECENFDTTSVPARIPENRIRSTRSVENLPECGITHEQRAGSFSTVPNYDNDDEAWSVDDIGELQVELPEVHTNSCDNISQFSVDSITSQESKEPVFIAAGDIRRRLSEQLAHTPTAFKRDPEDPSAVALKEPWQEKVRRIREGSPYGHLPNWRLLSVIVKCGDDLRQELLAFQVLKQLQSIWEQERVPLWIKPYKILVISADSGMIEPVVNAVSIHQVKKQSQLSLLDYFLQEHGSYTTEAFLSAQRNFVQSCAGYCLVCYLLQVKDRHNGNILLDAEGHIIHIDFGFILSSSPRNLGFETSAFKLTTEFVDVMGGLDGDMFNYYKMLMLQGLIAARKHMDKVVQIVEIMQQGSQLPCFHGSSTIRNLKERFHMSMTEEQLQLLVEQMVDGSMRSITTKLYDGFQYLTNGIM
B2: CTNNB1 (Homo sapiens, UniProt P35222); sequence looked up; chain MATQADLMELDMAMEPDRKAAVSHWQQQSYLDSGIHSGATTTAPSLSGKGNPEEEDVDTSQVLYEWEQGFSQSFTQEQVADIDGQYAMTRAQRVRAAMFPETLDEGMQIPSTQFDAAHPTNVQRLAEPSQMLKHAVVNLINYQDDAELATRAIPELTKLLNDEDQVVVNKAAVMVHQLSKKEASRHAIMRSPQMVSAIVRTMQNTNDVETARCTAGTLHNLSHHREGLLAIFKSGGIPALVKMLGSPVDSVLFYAITTLHNLLLHQEGAKMAVRLAGGLQKMVALLNKTNVKFLAITTDCLQILAYGNQESKLIILASGGPQALVNIMRTYTYEKLLWTTSRVLKVLSVCSSNKPAIVEAGGMQALGLHLTDPSQRLVQNCLWTLRNLSDAATKQEGMEGLLGTLVQLLGSDDINVVTCAAGILSNLTCNNYKNKMMVCQVGGIEALVRTVLRAGDREDITEPAICALRHLTSRHQEAEMAQNAVRLHYGLPVVVKLLHPPSHWPLIKATVGLIRNLALCPANHAPLREQGAIPRLVQLLVRAHQDTQRRTSMGGTQQQFVEGVRMEEIVEGCTGALHILARDVHNRIVIRGLNTIPLFVQLLYSPIENIQRVAAGVLCELAQDKEAAEAIEAEGATAPLTELLHSRNEGVATYAAAVLFRMSEDKPQDYKKRLSVELTSSLFRTEPMAWNETADLGLDIGAQGEPLGYRQDDPSYRSFHSGGYGQDALGMDPMMEHEMGGHHPGADYPVDGLPDLGHAQDLMDGLPPGDSNQLAWFDTDL
B3: ITGAV/ITGB6 ectodomain, soluble, clasped; chain 1 FNLDVDSPAEYSGPEGSYFGFAVDFFVPSASSRMFLLVGAPKANTTQPGIVEGGQVLKCDWSSTRRCQPIEFDATGNRDYAKDDPLEFKSHQWFGASVRSKQDKILACAPLYHWRTEMKQEREPVGTCFLQDGTKTVEYAPCRSQDIDADGQGFCQGGFSIDFTKADRVLLGGPGSFYWQGQLISDQVAEIVSKYDPNVYSIKYNNQLATRTAQAIFDDSYLGYSVAVGDFNGDGIDDFVSGVPRAARTLGMVYIYDGKNMSSLYNFTGEQMAAYFGFSVAATDINGDDYADVFIGAPLFMDRGSDGKLQEVGQVSVSLQRASGDFQTTKLNGFEVFARFGSAIAPLGDLDQDGFNDIAIAAPYGGEDKKGIVYIFNGRSTGLNAVPSQILEGQWAARSMPPSFGYSMKGATDIDKNGYPDLIVGAFGVDRAILYRARPVITVNAGLEVYPSILNQDNKTCSLPGTALKVSCFNVRFCLKADGKGVLPRKLNFQVELLLDKLKQKGAIRRALFLYSRSPSHSKNMTISRGGLMQCEELIAYLRDESEFRDKLTPITIFMEYRLDYRTAADTTGLQPILNQFTPANISRQAHILLDCGEDNVCKPKLEVSVDSDQKKIYIGDDNPLTLIVKAQNQGEGAYEAELIVSIPLQADFIGVVRNNEALARLSCAFKTENQTRQVVCDLGNPMKAGTQLLAGLRFSVHQQSEMDTSVKFDLQIQSSNLFDKVSPVVSHKVDLAVLAAVEIRGVSSPDHVFLPIPNWEHKENPETEEDVGPVVQHIYELRNNGPSSFSKAMLHLQWPYKYNNNTLLYILHYDIDGPMNCTSDMEINPLRIKISSLQTTEKNDTVAGQGERDHLITKRDLALSEGDIHTLGCGVAQCLKIVCQVGRLDRGKSAILYVKSLLWTETFMNKENQNHSYSLKSSASFNVIEFPYKNLPIEDITNSTLVTTNVTWGIQPAPMPV; chain 2 GCALGGAETCEDCLLIGPQCAWCAQENFTHPSGVGERCDTPANLLAKGCQLNFIENPVSQVEILKNKPLSVGRQKNSSDIVQIAPQSLILKLRPGGAQTLQVHVRQTEDYPVDLYYLMDLSASMDDDLNTIKELGSRLSKEMSKLTSNFRLGFGSFVEKPVSPFVKTTPEEIANPCSSIPYFCLPTFGFKHILPLTNDAERFNEIVKNQKISANIDTPEGGFDAIMQAAVCKEKIGWRNDSLHLLVFVSDADSHFGMDSKLAGIVIPNDGLCHLDSKNEYSMSTVLEYPTIGQLIDKLVQNNVLLIFAVTQEQVHLYENYAKLIPGATVGLLQKDSGNILQLIISAYEELRSEVELEVLGDTEGLNLSFTAICNNGTLFQHQKKCSHMKVGDTASFSVTVNIPHCERRSRHIIIKPVGLGDALELLVSPECNCDCQKEVEVNSSKCHHGNGSFQCGVCACHPGHMGPRCECGEDMLSTDSCKEAPDHPSCSGRGDCYCGQCICHLSPYGNIYGPYCQCDNFSCVRHKGLLCGGNGDCDCGECVCRSGWTGEYCNCTTSTDSCVSEDGVLCSGRGDCVCGKCVCTNPGASGPTCERCPTCGDPCNSKRSCIECHLSAAGQAREECVDKCKLAGATISEEEDFSKDGSVSCSLQGENECLITFLITTDNEGKTIIHSINEKDCPKPPNIP
Sequence of UniProt Q14204 (whole entry, looked up): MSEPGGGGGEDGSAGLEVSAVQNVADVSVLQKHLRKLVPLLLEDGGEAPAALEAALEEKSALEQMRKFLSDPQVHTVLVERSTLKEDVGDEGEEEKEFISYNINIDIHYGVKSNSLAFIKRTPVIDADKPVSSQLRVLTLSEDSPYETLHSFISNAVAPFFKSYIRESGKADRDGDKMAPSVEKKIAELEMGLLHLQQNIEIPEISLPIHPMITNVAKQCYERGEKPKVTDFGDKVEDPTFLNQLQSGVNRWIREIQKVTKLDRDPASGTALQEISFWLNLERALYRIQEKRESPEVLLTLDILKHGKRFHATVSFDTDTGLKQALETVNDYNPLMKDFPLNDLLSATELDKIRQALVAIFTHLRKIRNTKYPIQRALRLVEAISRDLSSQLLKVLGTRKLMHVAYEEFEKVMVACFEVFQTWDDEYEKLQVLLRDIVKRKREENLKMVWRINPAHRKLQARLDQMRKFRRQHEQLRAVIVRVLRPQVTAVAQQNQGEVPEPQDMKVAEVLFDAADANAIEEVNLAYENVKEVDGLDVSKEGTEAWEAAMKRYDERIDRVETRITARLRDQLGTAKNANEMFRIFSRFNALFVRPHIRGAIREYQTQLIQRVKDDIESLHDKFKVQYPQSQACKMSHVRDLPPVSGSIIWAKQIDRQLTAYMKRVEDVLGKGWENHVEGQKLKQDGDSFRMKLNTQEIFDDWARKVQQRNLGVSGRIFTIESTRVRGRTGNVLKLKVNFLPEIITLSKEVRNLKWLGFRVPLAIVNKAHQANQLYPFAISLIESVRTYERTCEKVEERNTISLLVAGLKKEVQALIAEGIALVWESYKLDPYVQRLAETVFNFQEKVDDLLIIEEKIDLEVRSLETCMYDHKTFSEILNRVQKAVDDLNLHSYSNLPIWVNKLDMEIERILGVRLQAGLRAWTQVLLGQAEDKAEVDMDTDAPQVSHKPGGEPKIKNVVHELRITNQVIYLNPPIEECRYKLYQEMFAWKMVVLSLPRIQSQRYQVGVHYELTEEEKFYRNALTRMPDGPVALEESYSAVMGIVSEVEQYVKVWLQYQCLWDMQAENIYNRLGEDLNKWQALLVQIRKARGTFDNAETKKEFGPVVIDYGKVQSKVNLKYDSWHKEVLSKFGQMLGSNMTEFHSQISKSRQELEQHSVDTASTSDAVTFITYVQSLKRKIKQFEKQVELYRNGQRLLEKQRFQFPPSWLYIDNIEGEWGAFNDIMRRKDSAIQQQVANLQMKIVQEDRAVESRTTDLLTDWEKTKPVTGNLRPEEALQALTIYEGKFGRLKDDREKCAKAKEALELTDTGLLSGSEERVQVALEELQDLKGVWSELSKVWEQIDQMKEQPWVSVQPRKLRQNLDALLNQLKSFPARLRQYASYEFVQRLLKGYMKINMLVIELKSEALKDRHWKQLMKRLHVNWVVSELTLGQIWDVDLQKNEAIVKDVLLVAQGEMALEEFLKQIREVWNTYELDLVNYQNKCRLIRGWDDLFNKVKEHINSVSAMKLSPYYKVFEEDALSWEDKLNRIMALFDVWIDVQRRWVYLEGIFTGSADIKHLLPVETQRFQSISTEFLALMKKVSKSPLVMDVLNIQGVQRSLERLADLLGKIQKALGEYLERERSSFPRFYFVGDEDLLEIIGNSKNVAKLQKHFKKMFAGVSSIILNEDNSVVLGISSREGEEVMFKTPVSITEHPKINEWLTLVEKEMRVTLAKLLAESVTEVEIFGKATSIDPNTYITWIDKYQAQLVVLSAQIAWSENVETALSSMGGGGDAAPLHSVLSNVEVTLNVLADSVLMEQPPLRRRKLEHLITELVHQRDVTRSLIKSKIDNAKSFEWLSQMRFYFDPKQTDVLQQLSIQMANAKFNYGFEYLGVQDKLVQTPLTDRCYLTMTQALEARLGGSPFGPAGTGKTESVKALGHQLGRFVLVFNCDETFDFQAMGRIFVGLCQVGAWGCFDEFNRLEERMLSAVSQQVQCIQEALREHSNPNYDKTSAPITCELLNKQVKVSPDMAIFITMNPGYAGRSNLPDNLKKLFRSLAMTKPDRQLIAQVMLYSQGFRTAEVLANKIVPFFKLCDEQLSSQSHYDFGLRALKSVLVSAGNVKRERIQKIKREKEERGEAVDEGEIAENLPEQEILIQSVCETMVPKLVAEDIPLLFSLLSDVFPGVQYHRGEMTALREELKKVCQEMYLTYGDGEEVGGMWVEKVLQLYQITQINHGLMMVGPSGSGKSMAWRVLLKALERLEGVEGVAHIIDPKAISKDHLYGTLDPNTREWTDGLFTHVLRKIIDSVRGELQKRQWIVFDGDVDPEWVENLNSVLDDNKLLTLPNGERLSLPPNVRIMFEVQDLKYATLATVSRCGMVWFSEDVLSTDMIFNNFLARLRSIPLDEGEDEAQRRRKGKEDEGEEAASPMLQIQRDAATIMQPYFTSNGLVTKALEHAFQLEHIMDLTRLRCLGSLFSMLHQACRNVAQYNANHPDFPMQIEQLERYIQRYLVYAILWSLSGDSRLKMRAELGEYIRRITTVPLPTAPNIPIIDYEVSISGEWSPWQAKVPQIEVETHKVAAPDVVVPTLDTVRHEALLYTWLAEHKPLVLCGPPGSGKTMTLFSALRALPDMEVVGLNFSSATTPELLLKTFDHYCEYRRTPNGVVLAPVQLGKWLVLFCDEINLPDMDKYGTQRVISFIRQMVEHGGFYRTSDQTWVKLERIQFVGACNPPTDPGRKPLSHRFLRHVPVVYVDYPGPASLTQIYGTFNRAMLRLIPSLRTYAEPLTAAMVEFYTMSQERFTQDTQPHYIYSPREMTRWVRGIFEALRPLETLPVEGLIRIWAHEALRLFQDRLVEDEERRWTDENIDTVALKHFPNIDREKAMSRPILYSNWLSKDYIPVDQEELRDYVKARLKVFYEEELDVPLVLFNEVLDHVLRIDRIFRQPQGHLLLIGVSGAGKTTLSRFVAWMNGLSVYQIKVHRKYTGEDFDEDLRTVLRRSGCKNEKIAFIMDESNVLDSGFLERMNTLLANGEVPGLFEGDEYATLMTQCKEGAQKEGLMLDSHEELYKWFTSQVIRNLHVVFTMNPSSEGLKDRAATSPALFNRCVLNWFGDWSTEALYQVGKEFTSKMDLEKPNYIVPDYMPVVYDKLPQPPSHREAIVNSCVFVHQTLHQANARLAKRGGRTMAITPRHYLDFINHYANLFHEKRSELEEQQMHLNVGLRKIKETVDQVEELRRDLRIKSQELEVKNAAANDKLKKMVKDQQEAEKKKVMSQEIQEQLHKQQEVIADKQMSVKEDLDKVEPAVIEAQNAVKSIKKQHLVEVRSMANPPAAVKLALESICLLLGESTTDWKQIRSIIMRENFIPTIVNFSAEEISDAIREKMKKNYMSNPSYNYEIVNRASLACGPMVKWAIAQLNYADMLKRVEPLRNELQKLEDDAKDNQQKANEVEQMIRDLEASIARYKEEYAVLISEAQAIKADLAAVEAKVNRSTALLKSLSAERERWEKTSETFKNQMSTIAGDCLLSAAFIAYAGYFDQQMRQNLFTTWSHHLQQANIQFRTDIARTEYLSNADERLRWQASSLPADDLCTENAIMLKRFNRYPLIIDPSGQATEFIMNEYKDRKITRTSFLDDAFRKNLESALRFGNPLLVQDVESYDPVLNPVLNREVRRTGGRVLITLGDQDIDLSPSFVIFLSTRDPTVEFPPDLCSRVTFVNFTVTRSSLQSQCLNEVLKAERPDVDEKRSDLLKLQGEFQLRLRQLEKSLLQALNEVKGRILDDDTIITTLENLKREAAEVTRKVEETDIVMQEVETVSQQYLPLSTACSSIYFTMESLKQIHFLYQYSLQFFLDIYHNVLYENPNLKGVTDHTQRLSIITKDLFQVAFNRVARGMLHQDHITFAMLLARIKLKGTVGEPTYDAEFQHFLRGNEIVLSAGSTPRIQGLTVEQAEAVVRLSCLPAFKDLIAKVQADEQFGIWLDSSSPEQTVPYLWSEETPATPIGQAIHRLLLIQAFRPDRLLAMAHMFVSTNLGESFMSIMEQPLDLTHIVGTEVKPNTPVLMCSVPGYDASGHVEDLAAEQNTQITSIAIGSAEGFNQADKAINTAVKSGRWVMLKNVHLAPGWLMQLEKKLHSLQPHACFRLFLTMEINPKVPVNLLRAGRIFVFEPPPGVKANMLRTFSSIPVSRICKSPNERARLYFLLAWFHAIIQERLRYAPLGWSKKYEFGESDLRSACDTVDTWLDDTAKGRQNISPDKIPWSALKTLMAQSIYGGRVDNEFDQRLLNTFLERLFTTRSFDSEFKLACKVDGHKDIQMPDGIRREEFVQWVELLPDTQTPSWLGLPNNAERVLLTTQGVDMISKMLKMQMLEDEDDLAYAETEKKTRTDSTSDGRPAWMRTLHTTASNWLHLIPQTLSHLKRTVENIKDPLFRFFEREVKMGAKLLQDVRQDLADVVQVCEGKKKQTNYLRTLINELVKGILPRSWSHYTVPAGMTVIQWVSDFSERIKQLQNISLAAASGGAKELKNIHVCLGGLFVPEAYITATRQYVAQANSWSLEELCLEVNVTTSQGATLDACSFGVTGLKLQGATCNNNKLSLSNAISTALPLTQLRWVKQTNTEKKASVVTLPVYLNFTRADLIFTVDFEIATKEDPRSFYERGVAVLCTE
Sequence of UniProt P05787 (whole entry, looked up): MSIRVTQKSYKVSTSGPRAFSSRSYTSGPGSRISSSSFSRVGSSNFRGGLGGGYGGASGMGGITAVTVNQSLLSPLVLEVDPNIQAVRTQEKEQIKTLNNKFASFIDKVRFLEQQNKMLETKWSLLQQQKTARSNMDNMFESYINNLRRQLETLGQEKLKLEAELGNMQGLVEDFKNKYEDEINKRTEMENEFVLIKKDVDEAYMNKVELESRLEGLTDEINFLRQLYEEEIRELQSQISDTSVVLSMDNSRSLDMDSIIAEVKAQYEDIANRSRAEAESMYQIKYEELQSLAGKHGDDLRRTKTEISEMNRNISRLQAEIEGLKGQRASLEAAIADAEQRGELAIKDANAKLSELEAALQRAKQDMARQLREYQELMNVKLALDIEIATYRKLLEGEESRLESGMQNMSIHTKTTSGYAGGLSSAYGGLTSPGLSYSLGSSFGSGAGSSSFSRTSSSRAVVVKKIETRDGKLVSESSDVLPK

Substance = B1 (PI4KB Q121R); tested on = RAB11A (Homo sapiens, UniProt P62491); test = co-IP; system = HEK-293T; how to read = baseline: wild type, higher = more binding; measurement = relative binding; result = 6.7 fold
Substance = B2 (CTNNB1); tested on = TAX1BP3 (Homo sapiens, UniProt O14907); test = FRET; system = A549; setting = in cells; how to read = baseline: donor-only bleed-through ratio, higher = more interaction; measurement = FRET fold increase; result = 1.5 fold
Substance = CDC6 (Saccharomyces cerevisiae, UniProt P09119); tested on = MCM3 (Saccharomyces cerevisiae, UniProt P24279); test = cross-linking MS; setting = hits only; measurement = interaction screen; result = cross-linked
Substance = FGA (Homo sapiens, UniProt P02671); tested on = DST (Homo sapiens, UniProt Q03001); test = cross-linking MS; setting = together with: DSSO; measurement = cross-linked residues; result = K148 to K3995
Substance = SERPINA1 (Homo sapiens, UniProt P01009); tested on = Factor Xa mature, plasma-derived (Homo sapiens); test = inhibition kinetics, amidolytic activity; measurement = second-order inhibition rate constant; result = 460 M⁻¹ s⁻¹
Substance = SPP1 (Saccharomyces cerevisiae, UniProt Q03012); tested on = REC107 V195D (Saccharomyces cerevisiae, UniProt P21651); test = single-molecule force spectroscopy; setting = loading rate 1 µm/s; measurement = rupture force; result = 82.4 pN
Substance = GSGAGKETRV; tested on = human SCRIB PDZ3-4 tandem (MBP fusion); test = automated holdup; system = peptide, purified PDZ protein; setting = concentration not given, unit not given; how to read = baseline: biotin control resin, higher = stronger binding; measurement = binding intensity; result = 0.764
Substance = DYNLRB1/DYNLL1/DYNLT1/DYNC1LI2/DYNC1I2/DYNC1H1 dynein-1 complex (Homo sapiens); tested on = KASH5/HOOK3 chimera KASH5 CC, Hook3 LIC-BD, HaloTag; test = pull-down; measurement = Ka; result = < 1.6e+06 M⁻¹
Substance = KNG1 high molecular weight kininogen (Homo sapiens); tested on = prekallikrein zymogen (Homo sapiens); test = clotting time; system = FXI-deficient plasma; setting = 670 nM, without 3E8; measurement = APTT; result = 231 s
Substance = SERPINF2 (Homo sapiens, UniProt P08697); tested on = UBTFL1 (Homo sapiens, UniProt P0CB47); test = cross-linking MS; setting = together with: DSSO; measurement = cross-linked residues; result = K468 to K81
Substance = DYNC1H1 (Homo sapiens, UniProt Q14204); tested on = NUMA1 1-705 (Homo sapiens, UniProt Q14980); test = time-lapse imaging; system = Flp-In T-REx mitotic; setting = PLK1 inhibition, together with: GSK461364; measurement = cortical dynein loss half-time; result = 29.5 min
Substance = FGG (Homo sapiens, UniProt P02679); tested on = DRC7 (Homo sapiens, UniProt Q8IY82); test = cross-linking MS; setting = together with: DSSO; measurement = cross-linked residues; result = K146 to K804
Substance = SLC4A1 (Homo sapiens, UniProt P02730); tested on = EPB42 (Homo sapiens, UniProt P16452); test = cross-linking MS; setting = together with: DSSO or DMTMM; measurement = cross-linked residues; result = K360 to E67
Substance = LGQSMDESGLPQLTSYDCEVNAPIQGSRNLLQGEELLRALDQVN (HIF1A CTAD (Homo sapiens, UniProt Q16665)); tested on = EP300 CH1 (Homo sapiens); test = FP competition; system = peptide; measurement = IC50; result = 830 nM
Substance = PSPFTPPPPQTPSP (SOS1 proline-rich peptide, 1253-1266); tested on = GRB2 1-58 (Homo sapiens, UniProt P62993); test = NMR titration; system = peptide; measurement = chemical shift perturbation; result = 0.04 ppm
Substance = KRT8 (Homo sapiens, UniProt P05787); tested on = AKAP9 (Homo sapiens, UniProt Q99996); test = cross-linking MS; system = cells; setting = together with: iqPIR; measurement = cross-linked residues; result = K8 to K949
Substance = SUPT6H, Cy3-labelled Spy tag (Homo sapiens, UniProt Q7KZ85); tested on = RNA polymerase II elongation complex, P-TEFb phosphorylated (Sus scrofa); test = single-molecule fluorescence colocalisation; setting = phosphorylated; measurement = residence time; result = 412 s
Substance = GSGAGSETVV; tested on = human SCRIB PDZ3-4 tandem (MBP fusion); test = automated holdup; system = peptide, crude extract; setting = concentration not given, corrected by standard peak, unit not given; how to read = baseline: biotin control resin, higher = stronger binding; measurement = binding intensity; result = 0.338
Substance = PTHrP fragment, unlabeled; tested on = PTH1R (Homo sapiens, UniProt Q03431); test = competition with tracer, competitor, BRET; system = cells; setting = in cells, together with: tracer E35K TMR 70 nM; measurement = IC50; result = 80 nM
Substance = DSP C-terminal tail 1987-end (Homo sapiens); tested on = KRT5 1-71 (Homo sapiens, UniProt P13647); test = far-Western; how to read = baseline: 93-residue peptide, higher = more binding; measurement = relative binding; result = > 6 fold
Substance = B3; tested on = TGFB3 fragment, aminocaproic acid, FITC label; test = fluorescence polarisation; setting = together with: CaCl2 1 mM; measurement = EC50; result = 3.1 nM
Substance = trastuzumab-MMAE ADC IgG1; tested on = FCGR3A (Homo sapiens, UniProt P08637); test = BLI; setting = ADC; how to read = baseline: unconjugated Trastuzumab, higher = weaker binding; measurement = KD fold increase; result = 2 fold
Substance = SPTA1/SPTB tetramer (Homo sapiens); tested on = ANK1 (Homo sapiens, UniProt P16157); test = radioligand binding; system = inside-out vesicles; setting = 2.4 µM; how to read = higher = stronger inhibition; measurement = binding inhibition; result = > 95%
Substance = CALLLSAPRR (GOT2 (Gallus gallus); fluorescein label); tested on = HSPA9 mature G489E (Homo sapiens, UniProt P38646); test = FP; system = peptide; measurement = koff; result = 0.00533 s⁻¹
Substance = ALB (Homo sapiens, UniProt P02768); tested on = PDE7A (Homo sapiens, UniProt Q13946); test = cross-linking MS; setting = together with: DSSO; measurement = cross-linked residues; result = K219 to K452
Substance = NGVTKTILEPRARVAKDYGK (gld-3 860-879 E874A (Caenorhabditis elegans, UniProt Q95ZK7); sequence looked up); tested on = fbf-2 164-575 (Caenorhabditis elegans, UniProt Q09312); test = fluorescence polarisation; system = peptide; how to read = baseline: wild-type GLD-3, higher = weaker competition; measurement = competition IC50; result = 2 fold
Substance = colistin; tested on = Enterobacter cloacae; test = broth microdilution; system = clinical isolate RKI-No_243/15; measurement = MIC; result = 4 mg/L

Repeated from above:
Substance = FGG (Homo sapiens, UniProt P02679); tested on = DRC7 (Homo sapiens, UniProt Q8IY82); test = cross-linking MS; setting = together with: DSSO; measurement = cross-linked residues; result = K146 to K804
Substance = B3; tested on = TGFB3 fragment, aminocaproic acid, FITC label; test = fluorescence polarisation; setting = together with: CaCl2 1 mM; measurement = EC50; result = 3.1 nM
Substance = ALB (Homo sapiens, UniProt P02768); tested on = PDE7A (Homo sapiens, UniProt Q13946); test = cross-linking MS; setting = together with: DSSO; measurement = cross-linked residues; result = K219 to K452
Substance = NGVTKTILEPRARVAKDYGK (gld-3 860-879 E874A (Caenorhabditis elegans, UniProt Q95ZK7); sequence looked up); tested on = fbf-2 164-575 (Caenorhabditis elegans, UniProt Q09312); test = fluorescence polarisation; system = peptide; how to read = baseline: wild-type GLD-3, higher = weaker competition; measurement = competition IC50; result = 2 fold
